Results pooled from the literature.
Lines come from different studies, so protocols differ. “And” joins repeats or separate records; there may be more than shown. ± gives the spread as reported.
PSMB7: Proteasome subunit beta type-7 (PSMB7, Homo sapiens, UniProt Q99436)
EGFR: Epidermal growth factor receptor (EGFR, Homo sapiens, UniProt P00533)
Low molecular weight phosphotyrosine protein phosphatase isoform A: Low molecular weight phosphotyrosine protein phosphatase, isoform A (Mus musculus, UniProt Q9D358)
Serotonin N-acetyltransferase: Serotonin N-acetyltransferase (Ovis aries, UniProt Q29495)
MAP2K1: Dual specificity mitogen-activated protein kinase kinase 1 (MAP2K1, Homo sapiens, UniProt Q02750)
F12: Coagulation factor XII (F12, Homo sapiens, UniProt P00748)
Urease subunit alpha: Urease subunit alpha (Sporosarcina pasteurii, UniProt P41020)
MAL12: Alpha-glucosidase MAL12 (MAL12, Saccharomyces cerevisiae S288c, UniProt P53341)

Structure (SMILES)	target	test	test system	setting	IC50
CC(C)(C)NC(=O)C[C@H](NC(=O)C(=O)c1c[nH]c2ccccc12)C(=O)NCc1cccc(B(O)O)c1	PSMB7	inhibitor			> 33.3 µM
FC(F)(F)c1cccc(Nc2ncnc3ccc(-c4ccoc4)cc23)c1	EGFR	kinase activity, inhibitor, HotSpot radiometric		together with: ATP 10 µM	0.00438 µM
COCC(=O)N1CCC[C@H](C(=O)NCc2nc(-c3ccc(OC)cc3)cs2)C1	PSMB1/PSMB8/PSMB3 (Homo sapiens, UniProt P20618+P28062+P49720)				> 30 µM
Cc1ncc(C(=O)N[C@@H](CC2CCC(C)CC2)C(=O)N[C@@H](CC(C)C)C(=O)N[C@H](/C=C/S(C)(=O)=O)Cc2ccc(CN)cc2)s1 (some centres unmarked)	PSMB7	inhibitor, biochemical			0.383 µM
COc1ccc(-c2cc(NCCCN3CCCCC3)c3ccccc3n2)cc1	Low molecular weight phosphotyrosine protein phosphatase isoform A	enzyme activity, inhibitor		together with: OMFP substrate	1.68 µM
C/C=C(\C)c1cc(O)c(C)c2c1Oc1c(C)c(O)cc(/C(C)=C/C)c1C(=O)O2	CFTR (Homo sapiens, UniProt P13569)	chloride current, inhibitor, short-circuit current	T84 cells	together with: forskolin, CPT-cAMP and genistein	~0.2 µM
C[C@@H]1CN(C(=O)c2ccc(NC(=O)c3cc(O[C@H](C)c4c(Cl)ccc(F)c4Cl)c(N)nn3)cc2)C[C@H](C)N1	ALK (Homo sapiens, UniProt Q9UM73)	enzyme activity, inhibitor		together with: ATP 1 mM	0.0009 µM
O=C1NC(=S)S/C1=C1\C(=O)N(Cc2ccc(F)cc2)c2ccccc21	Serotonin N-acetyltransferase	inhibitor, stopped-flow UV		together with: serotonin 100 µM, acetyl-CoA 100 µM	> 60 µM
Cc1cnc(-c2ccc(-c3ccc(NC(=O)Nc4c(F)cc(F)cc4F)cc3F)c3c2C(=O)NC3)[nH]1	MAP2K1	enzyme activity, inhibitor, mobility shift		together with: ATP 1 mM	0.325 µM
COCc1nn(Cc2ccc(Cn3ccccc3=O)cc2)cc1C(=O)NCc1nccc(OC(C)C)c1F	F12				> 40 µM
O=C1/C(=C2/C(=O)N(Cc3ccc(F)cc3)c3ccccc32)SC(=S)N1CCCCCCO	Serotonin N-acetyltransferase	inhibitor, stopped-flow UV		together with: serotonin 100 µM, acetyl-CoA 100 µM	> 60 µM
CCc1ccc(NC(=S)N/N=C/C=C/c2ccc(F)cc2)cc1	Urease subunit alpha	enzyme activity, indophenol method			10.7 ± 1.4 µM
CNCC(=O)O	SLC6A9 (Homo sapiens, UniProt P48067)	[3H]glycine uptake, inhibitor	HEK293F		97 µM
c1ccc(CN(Cc2ccccn2)C(c2ccccn2)c2ccccn2)nc1	Proteasome subunit beta type-7, in 20S proteasome (PSMB7, Homo sapiens, UniProt Q99436)	trypsin-like activity, inhibitor, purified 20S proteasome		pH 7.4, together with: 20 µM Bz-VGR-AMC	> 1000 µM
CC(C)Cn1c(=O)n(C)c(=O)c2nc(SCCCO)c(Cc3cccc4ccccc34)nc21	Monocarboxylate transporter 1 (Slc16a1, Mus musculus, UniProt P53986)	lactate transport	MCF7 expressing Slc16a1	10 min, together with: [14C]lactate	0.858 µM
COc1ccnc(CNC(=O)c2cn(Cc3ccc(Cn4ccccc4=O)cc3)nc2C(F)(F)F)c1F	F12				> 40 µM
O=C1/C(=C2/C(=O)N(Cc3ccc(F)cc3)c3ccccc32)SC(=S)N1C[C@H]1CC[C@H](C(=O)O)CC1	Serotonin N-acetyltransferase	inhibitor, stopped-flow UV		together with: serotonin 100 µM, acetyl-CoA 100 µM	17 ± 10 µM
FC(F)(F)c1cccc(-c2cc(NCCCN3CCCCC3)c3ccccc3n2)c1	Low molecular weight phosphotyrosine protein phosphatase isoform A	enzyme activity, inhibitor		together with: OMFP substrate	2.66 µM
C=CC(=O)Nc1cccc(Sc2nc(Nc3ccc(N4CCN(C)CC4)cc3)ncc2Cl)c1	Epidermal growth factor receptor, with GRB2 (EGFR, Homo sapiens, UniProt P00533, T790M)	EGFR-GRB2 interaction, NanoBiT	cells expressing EGFR T790M	1 h, together with: EGF 300 ng/mL	0.0427 µM and 0.043 µM
CC[C@H](C)[C@H](NC(=O)[C@H](CS)NC(=O)[C@H](CCC(=O)O)NC(=O)[C@H](C)NC(=O)[C@@H](NC(=O)[C@@H](N)CCCNC(=N)N)[C@@H](C)CC)C(=O)N[C@@H](CC(C)C)C(=O)NCC(=O)N[C@@H](CCSC)C(=O)O	HLA class I histocompatibility antigen, B alpha chain, allele B*08:01 (Homo sapiens, UniProt P01889)	binding, competitor, radioligand competition		two days, room temperature, HLA-B*08:01	> 40 µM
COc1ccc(-c2nn(-c3ccc(S(C)(=O)=O)cc3)cc2C=N/N=c2\[nH]c(-c3ccc([N+](=O)[O-])cc3)cs2)cc1	EGFR	kinase activity, inhibitor			0.19 ± 0.008 µM
CN1CCN(c2ccc(Nc3ncc4cc(C#N)c(=O)n(C5CCCC5)c4n3)cc2)CC1	PIM2 (Homo sapiens, UniProt Q9P1W9)				> 10 µM
COc1ccc(F)c(CNC(=O)c2cnn(Cc3ccc(Cn4ccccc4=O)cc3)c2)c1F	F12				> 40 µM
Fc1ccc(/C=C/C=N/NC(=S)Nc2cccc(F)c2)cc1	Urease subunit alpha	enzyme activity, indophenol method			15.1 ± 1.9 µM

Structure (SMILES)	target	test	test system	setting	IC50
Cc1nc2ccc(Cl)cc2c(=O)n1NC(=O)CCl	Pancreatic alpha-amylase (Homo sapiens, UniProt P04746)	enzyme activity, inhibitor			440 ± 7.07 µM
c1ccc(-c2cc(OCCCN3CCCCC3)c3ccccc3n2)cc1	Low molecular weight phosphotyrosine protein phosphatase isoform A	enzyme activity, inhibitor		together with: OMFP substrate	11.5 µM
CC(C)(C)n1nc(-c2ccc3nc(OC4CC4)ccc3c2)c(C(N)=O)c1N	EGFR				> 10 µM
Cc1nc2ccc(Cl)cc2c(=O)n1NC1=NC(=O)CS1	MAL12	enzyme activity, inhibitor	Saccharomyces cerevisiae	together with: 4-nitrophenyl glucopyranoside	53.4 ± 2.12 µM
COc1ccccc1-c1cc(NCCCN2CCCCC2)c2ccccc2n1	Low molecular weight phosphotyrosine protein phosphatase isoform A	enzyme activity, inhibitor		together with: OMFP substrate	2.87 µM
CC(=O)c1ccc2cc(S(=O)(=O)Nc3ccccn3)ccc2c1	STAT3 (Homo sapiens, UniProt P40763)	tyrosine phosphorylation, inhibitor, ELISA, measured: phospho-Tyr705			8.58 µM
CC(C)c1ccc(NC(=S)N/N=C/C=C/c2ccc(F)cc2)cc1	Urease subunit alpha	enzyme activity, indophenol method			8.9 ± 0.5 µM
O=C(O)c1ccc(NS(=O)(=O)c2ccc(Cl)c(Cl)c2)cc1	HSD17B2 (Homo sapiens, UniProt P37059)	enzyme activity, inhibitor		together with: β-estradiol	> 100 µM
Cc1cnn(Cc2ccc(Cn3c(C)cc(C(=O)NCc4ccc(CN)cc4)c3C)cc2)c1	F12				> 10 µM
CC[C@@H]1[C@H](F)C(=O)N[C@@H]1COc1nccc2cc(C(N)=O)c(OC)cc12	MAP2K1	ATP-site probe binding, ActivX profiling	THP-1 cell lysate	Lys2 site	> 5 µM
CCCCNc1ccc(C(=O)OCCN(C)C)cc1	SCN1A (Homo sapiens, UniProt P35498)	ion current, inhibitor	cells	5 min	0.82 µM
C=CC(=O)N1CCC([C@@H]2CCNc3c(C(N)=O)c(-c4ccc(Oc5ccccc5)cc4)nn32)CC1	MAP2K1				2.04 µM
Fc1ccc(/C=C/C=N/NC(=S)NC2CCCCC2)cc1	Urease subunit alpha	enzyme activity, indophenol method			7.5 ± 0.1 µM
c1ccc(-c2cc(NCCCN3CCCCC3)c3ccccc3n2)cc1	Low molecular weight phosphotyrosine protein phosphatase isoform A	enzyme activity, inhibitor		together with: OMFP substrate	1.56 µM
CC(=O)Nc1ccc(Nc2nc(-c3sc(N)nc3C)cs2)cc1	LOXL2 (Homo sapiens, UniProt Q9Y4K0)	enzyme activity	HEK-293T conditioned media		2.82 µM
O=C(O)CCCCCN1C(=O)/C(=C2/C(=O)N(Cc3ccc(F)cc3)c3ccccc32)NC1=S	Serotonin N-acetyltransferase	inhibitor, stopped-flow UV		together with: serotonin 100 µM, acetyl-CoA 100 µM	56 ± 6 µM
O=C(Nc1cccc2c(=O)cc(-c3nnn[nH]3)oc12)c1ccc(OCCCCc2ccccc2)cc1	LRRC8A/LRRC8C (Homo sapiens, UniProt Q8IWT6+Q8TDW0, E6A)	ion current, inhibitor, whole-cell patch clamp	HCT116 LRRC8-/- transfected	at +100 mV	0.53 µM
Nc1nc(N)c(OCCCOc2ccccc2CCC(=O)O)c(-c2ccc(C(F)(F)F)cc2)n1	uncharacterized protein (Mycobacteroides abscessus, UniProt B1MD46)	enzyme activity, inhibitor, NADPH fluorescence		together with: 1 nM enzyme	0.44 µM
COc1cc(/C=N/n2c(C)nc3ccc(Br)cc3c2=O)ccc1O	MAL12	enzyme activity, inhibitor	Saccharomyces cerevisiae	together with: 4-nitrophenyl glucopyranoside	25.8 ± 1.41 µM
c1ccc(-c2cc(NCCN3CCCC3)c3ccccc3n2)cc1	Low molecular weight phosphotyrosine protein phosphatase isoform A	enzyme activity, inhibitor		together with: OMFP substrate	5.46 µM
CCCCCCCCCCCCc1cc(=O)c2ccccc2n1O	Type II NADH dehydrogenase (Plasmodium falciparum, UniProt Q8I302)	enzyme activity, inhibitor, NADH oxidation absorbance			0.1 µM
O=C(O)CCCCN1C(=O)/C(=C2/C(=O)N(Cc3ccc(F)cc3)c3ccccc32)SC1=S	Serotonin N-acetyltransferase	inhibitor, stopped-flow UV		together with: serotonin 100 µM, acetyl-CoA 100 µM	30 µM
Cc1nc2ccc(Br)cc2c(=O)n1/N=C/c1ccc(C(=O)O)cc1	MAL12	enzyme activity, inhibitor	Saccharomyces cerevisiae	together with: 4-nitrophenyl glucopyranoside	16.4 ± 0.54 µM

For quick reference, copied from above:
Structure (SMILES)	target	test	test system	setting	IC50
COc1ccc(-c2nn(-c3ccc(S(C)(=O)=O)cc3)cc2C=N/N=c2\[nH]c(-c3ccc([N+](=O)[O-])cc3)cs2)cc1	EGFR	kinase activity, inhibitor			0.19 ± 0.008 µM
CN1CCN(c2ccc(Nc3ncc4cc(C#N)c(=O)n(C5CCCC5)c4n3)cc2)CC1	PIM2 (Homo sapiens, UniProt Q9P1W9)				> 10 µM
COc1ccc(F)c(CNC(=O)c2cnn(Cc3ccc(Cn4ccccc4=O)cc3)c2)c1F	F12				> 40 µM
Fc1ccc(/C=C/C=N/NC(=S)Nc2cccc(F)c2)cc1	Urease subunit alpha	enzyme activity, indophenol method			15.1 ± 1.9 µM
Cc1nc2ccc(Cl)cc2c(=O)n1NC(=O)CCl	Pancreatic alpha-amylase (Homo sapiens, UniProt P04746)	enzyme activity, inhibitor			440 ± 7.07 µM
c1ccc(-c2cc(OCCCN3CCCCC3)c3ccccc3n2)cc1	Low molecular weight phosphotyrosine protein phosphatase isoform A	enzyme activity, inhibitor		together with: OMFP substrate	11.5 µM
